Measurements from different studies.
Numbered parts are unrelated; each lists some results of a single study.

Series 1 — method: RNA Bind-n-Seq; form: RNA; medium: in vitro; concentration: 365 nM; relative to: no-protein control; reading: higher = stronger binding
Target: RNA binding protein fox-1 homolog 2, RRM domain, GST-SBP tag (RBFOX2, Homo sapiens, UniProt O43251-10, residues 100-194)
Setting: natural RNA segment, single round, ends assumed
Constant ends, left off below: GGGAGUUCUACAGUCCGACGAUC … UGGAAUUCUCGGGUGCCAA
Construct (chain): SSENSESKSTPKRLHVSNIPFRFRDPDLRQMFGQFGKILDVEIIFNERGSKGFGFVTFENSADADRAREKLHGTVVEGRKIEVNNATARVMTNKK
Sequence	RBNS enrichment (R)
GCAGCCAGUGGGUGGUUGUUUCUCAAUCUCUGUAGCAUGACUUUUUAAUCCCCAGGUGUGUUAGUCCCAGCCUAGUUUGGUGCUCGAGGUGAGAGGGGAUUUGAAUCUGU	0.897
UUCAAGUAGGAAAUUUUAAUUUAAAAUUAUUUUGCCACUAUAAAAUUUUAUUUUAAAUUUAUUUUUAAAUAAAAGAAAUGAUAAGAGAAAUAAUAUUGACAAAGUGAUUC	1.55
GGCCCUAAAGCAGGCCUGCACCCCCAUGUUCCGGGAGUACUCCCUGCAGGUUCUGAAGAAUGCUCGGGCCAUGGCAGAUGCCCUGCUAGAGCGAGGCUACUCACUGGUAU	0.426
CAUAGGACCUCUGGCAUUUUAGAAUUACUAGCUGAAAAAUUGUAAUGUACCAACAGAAAUAUUAUUGUAAGAUGCCUUUCUUGUAUAAGAUAUGCCAAUAUUUGCUUUAA	0.344
AGCUGAGCCAGGCUAUGAGGAAACCCUGGAUAUCAGCAUAAACCUAUGUCUGGGACUACGAUCCCUUUUCCCUGGGUAAUAAACUCAGCCACCCAUCCUAAGGAGGCAAG	0.313
CCAAACACUUGGGUUUGGUGACCCUGUCUUUCUUAUAUGACCCUACAAUAAACAUUUGAAGGCAGCAUAGGAUGGCAGACAGUAGGAACAUUGUUUCACUUGGCGGCAUG	0.484
CUGUUGGCGCCUAACCUCGCGUGCACUGCAUUCUCAACCCCGUACCAGUGCAUCAUCAGAAGCCUUCCUCGUGACCAUAACUCUGUGUCUGCAGAUAUGUGUUCCCGUGU	0.255
GUCAUUGUCCAUUUACUAUAAUUUAUCUGACCAUUUCCCUACUGUAAAAUACUUAAGACGGUUUCUGAUUUUUCCACUAUUUAAAUAAUGCUGUGAUGAAUAUCUUUAAA	0.602
CCUUUCCUUUCUUGGGGCACUGUUGCUGUGGCACUUUUCUAUAACCUUGUCAUUCCUAUGUACAGUAGCUGGAAGUCGCAGUGAGCAAGCAUAACCCACGUUUGUAUAAA	0.407
GGCCAUUUUAGUUUGAGUUCGAGCCAACCACCUCUGUUGGUUAGAUGAUGAAUAAAAAGGUUCUGAAAAAAGGUCUGGAUCCAGUUGUCUUUCUGCAUGGAUUAAAGAGU	1.59
UUUCCAUUUCAAACAAAAUUUUAGAAAUUGGUUUGGUGUUCAGCUUCACAUUUCAUUUUUUCUUAGCACAUGUUGAUAAAAUAGUCACAAGGAGAAAUUACCAGUUACGG	0.47
UGGGUAAGGAACCAAAGCUCUCUUGGCUAUAGCCAGCCUCCUCAUUGAAGGGUGUUUUAGGGUAUCUGCCCACAGAUUUUCUCCAAACAAUUGGGAAGUGCCUAGAGUCC	0.282

Series 2 — method: universal PBM; form: double-stranded DNA, one strand shown; medium: in vitro; concentration: 600 nM; reading: higher = stronger binding
Target: Sal-like protein 4, full length isoform A (SALL4, Homo sapiens, UniProt Q9UJQ4, residues 1-1053)
UniProt Q9UJQ4, sequence (whole entry, looked up): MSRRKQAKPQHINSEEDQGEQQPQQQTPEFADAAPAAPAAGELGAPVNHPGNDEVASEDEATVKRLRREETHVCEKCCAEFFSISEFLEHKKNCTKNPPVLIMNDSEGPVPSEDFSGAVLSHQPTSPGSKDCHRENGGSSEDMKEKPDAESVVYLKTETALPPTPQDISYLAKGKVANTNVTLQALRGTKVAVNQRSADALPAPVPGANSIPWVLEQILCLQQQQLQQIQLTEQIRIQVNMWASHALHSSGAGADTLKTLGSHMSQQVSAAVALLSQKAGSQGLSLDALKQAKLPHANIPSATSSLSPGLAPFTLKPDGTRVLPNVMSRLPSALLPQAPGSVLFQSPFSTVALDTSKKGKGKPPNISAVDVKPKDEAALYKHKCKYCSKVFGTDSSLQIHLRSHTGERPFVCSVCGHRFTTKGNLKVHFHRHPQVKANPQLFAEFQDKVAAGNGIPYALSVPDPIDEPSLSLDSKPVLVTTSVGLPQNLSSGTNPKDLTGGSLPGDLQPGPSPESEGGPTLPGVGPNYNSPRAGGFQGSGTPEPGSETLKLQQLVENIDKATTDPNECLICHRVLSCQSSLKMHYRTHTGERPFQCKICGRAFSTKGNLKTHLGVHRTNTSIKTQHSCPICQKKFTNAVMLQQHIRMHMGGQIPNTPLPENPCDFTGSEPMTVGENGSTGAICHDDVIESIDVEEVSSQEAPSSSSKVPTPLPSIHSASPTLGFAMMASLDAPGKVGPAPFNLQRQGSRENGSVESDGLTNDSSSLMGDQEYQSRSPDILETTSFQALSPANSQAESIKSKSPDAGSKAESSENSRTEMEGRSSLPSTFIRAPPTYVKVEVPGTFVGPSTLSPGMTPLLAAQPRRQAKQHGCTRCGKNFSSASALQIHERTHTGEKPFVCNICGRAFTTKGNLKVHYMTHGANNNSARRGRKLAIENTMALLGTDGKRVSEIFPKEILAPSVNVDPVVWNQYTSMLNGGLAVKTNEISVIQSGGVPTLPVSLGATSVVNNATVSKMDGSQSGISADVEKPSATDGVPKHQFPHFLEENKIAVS
Setting: 8-mer, flanks averaged, mean of replicates
Sequence	E-score
GACTGATC	0.00806
AGCTTACC	-0.0542
CCTATCCG	-0.246
CTTCGGTC	-0.0383
AAAGGCAC	-0.0494
ACGGCTGC	-0.341
CGCTCCTC	-0.34
CGAAGAGC	-0.092
TTGGAAAA	0.266
ATAATTAA	0.401
AATATCTG	0.259
AAGTACTT	0.154
AACGGTTA	0.00865
AAAGGTGG	-0.0096
CTTGGTAC	-0.0377
ACAATGTC	0.0711
ATAGCGCG	0.0598
CCAACCAG	-0.206
AGATGAGG	-0.182
GAGGAGAC	-0.233
CGATACTC	-0.00161
TCAGCAAA	0.172
ACGAGGAC	-0.183
AAATGTCG	-0.0154
TAACCGAA	0.0644

Series 3 — method: Spec-seq; form: double-stranded DNA, one strand shown; medium: in vitro; concentration: not given; setting: whole probe, mean of replicates; relative to: not given; reading: lower = stronger binding; constant ends, left off below: GAGTCGTCTCGTCAGCAC … CCGTAGAGCACTCAGGTC
Target: POU domain, class 5, transcription factor 1, POU domain (Pou5f1, Mus musculus, UniProt P20263, residues 131-289)
UniProt P20263, sequence (131-289, looked up): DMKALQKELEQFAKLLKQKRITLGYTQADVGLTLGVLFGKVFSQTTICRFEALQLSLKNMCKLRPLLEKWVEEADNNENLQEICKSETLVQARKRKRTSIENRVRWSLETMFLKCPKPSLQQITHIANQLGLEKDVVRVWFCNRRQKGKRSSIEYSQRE
Sequence	relative binding energy [ln ratio]
GAATTAAT	-0.445
ATGCTAAT	-2.32
ATGCAAAC	-0.634
GTGTTAAT	-0.335
ATTGCGAT	0.476
TATCTAAT	0.458
ATAACAAT	0.317
ATGCGCCA	0.41
GATGTAAT	0.168
ACATTAAT	-0.137
ATTGACAT	0.145
ATCAAGAT	0.587
TAGCTAAT	0.463
ATAACTAT	-0.416
TGTTTAAT	0.444
CTGATAAT	0.733
ATGCGGCC	0.517
GTTTTAAT	0.418
TTCGTAAT	0.708
ACAGTAAT	0.558
ATTCGAAT	-0.22
TCTTTAAT	0.524
ATGCCTAC	0.32

Series 4 — method: RNA Bind-n-Seq; form: RNA; medium: in vitro; concentration: 200 nM; setting: whole 134-nt RNA, ends assumed; with: 150 mM KCl; relative to: input library; reading: higher = stronger binding
Target: Ras GTPase-activating protein-binding protein 1, full length (G3BP1, Homo sapiens, UniProt Q13283)
UniProt Q13283, sequence (whole entry, looked up): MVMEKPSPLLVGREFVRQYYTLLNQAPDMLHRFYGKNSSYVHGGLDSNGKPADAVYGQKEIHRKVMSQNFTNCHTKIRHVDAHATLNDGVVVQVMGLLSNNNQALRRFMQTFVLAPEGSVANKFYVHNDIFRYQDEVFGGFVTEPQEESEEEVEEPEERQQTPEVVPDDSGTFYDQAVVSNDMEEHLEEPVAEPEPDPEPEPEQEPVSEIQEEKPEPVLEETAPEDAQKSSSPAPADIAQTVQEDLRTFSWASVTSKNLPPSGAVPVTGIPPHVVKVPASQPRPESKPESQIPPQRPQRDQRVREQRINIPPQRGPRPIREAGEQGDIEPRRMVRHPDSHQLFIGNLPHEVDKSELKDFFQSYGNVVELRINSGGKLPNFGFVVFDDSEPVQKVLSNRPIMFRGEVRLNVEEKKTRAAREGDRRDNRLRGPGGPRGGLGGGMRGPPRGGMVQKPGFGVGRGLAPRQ
Constant ends, left off below: GGGAGUUCUACAGUCCGACGAUC … UGGAAUUCUCGGGUGUCAAGG
Sequence	log2 enrichment
GCAGGAAGUAAAAACAAAUGGAAAUGCUUCGGAUAGUGGCAGGGGUGGGGGUUGCUAAGGAAAGGGUGGGAGGGGAGUGGGUAAAGAGUU	1.24
UCAAGUCCUGUGCUACACAUCGUAUGUACCGAAUCGGAAGGGGAAGGGAAGGGGAAAGUAUUAUGUUACGCCGUUCGGAUCUGCACUUCC	1.25
CUGUGCUACACAUCGUAUGUACCGAAUCGGUUUUUUUGGGGUUUUUUUGGUUUUUUUGGGGAAAGUAUUAUGUUACGCCGUUCGGAUCUG	-1.16
AAGUCCUGUGCUACACAUCGUAUGUACCGAAUCGGGAAAAGGGAAAAGGGAAAAGGGAAAGUAUUAUGUUACGCCGUUCGGAUCUGCACU	-0.148
ACCAUGCAGGUGGGCAUCUUUGGGAAGUGGGGCAAGGGGGGGAUAGGGAGGGGGGUAACACUUUGGGAUCAGGUGGUCCCAGGUCGUUUC	0.825
GCAGGAAGUAAAAACAAAUGGAAAUGCUUCGGAUAGUGGCAAAAGUGGGGGUUGCUAAGGAAAGGGUGGGAUGGGAGUGGGUAAAGAGUU	0.893
AAGUCCUGUGCUACACAUCGUAUGUACCGAAUCGGGGAAAGGGGAAAGGAAAGGGGAAAGUAUUAUGUUACGCCGUUCGGAUCUGCACUU	0.32
UAACUUUAGAGGAGGAUCUGAUGGAUAUGGCAGUGGACGUGGACUUGGGGAUGGCUAUAAUGGGUAUGGAGGAGGACCUGGAGGUGGCAA	0.283
CUGUGCUACACAUCGUAUGUACCGAAUCGGGGAAAGGGGAAAAAAAGGGGUUUUUUUGGGGAAAGUAUUAUGUUACGCCGUUCGGAUCUG	-0.0569
ACCAUGCAGGUGGGCAUCUUUGGGAAGUGGGGCAAGGGGGGGAUUGGGAGGGGGGUAACACUUUGGGAACAGGUGGUCCCAGGUCGUUUC	1.31
AAGUCCUGUGCUACACAUCGUAUGUACCGAAUCGGGGUUUGGGGUUUGGGGUUUGGAAAGUAUUAUGUUACGCCGUUCGGAUCUGCACUU	-0.248
CCUGUGCUACACAUCGUAUGUACCGAAUCGGGGUUUGGGGUUUUUGGGGUUUUUUUGGGGAAAGUAUUAUGUUACGCCGUUCGGAUCUGC	0.2
ACCAUGCAGGUGGGCAUCUUUCGGAAGUGGGGCAAGGGGGGGAUAGGGAGGGGGGUAACACUUUGGGAACAGGUGGUCCCAGGUCGUUUC	1.25
CUGUGCUACACAUCGUAUGUACCGAAUCGGGGCCCCCCGGGGCCCCCCGGGGCCCCCCGGGAAAGUAUUAUGUUACGCCGUUCGGAUCUG	-1.51

For quick reference, copied from above (series 3):
Sequence	relative binding energy [ln ratio]
ATGCGGCC	0.517
ATAACTAT	-0.416
ATGCGCCA	0.41
ATCAAGAT	0.587
